Experimental data collected from several papers.
Compare with care: the assays were run in different laboratories. ± marks the error that the study gave.
Organism: Influenza A virus

Structure (SMILES)	test	system	conditions	scale	endpoint	value
COc1cccc(CNC(=O)c2cc(C3CC3)nn2C)c1OC	viral replication	MDCK, A/WSN/33	–	–	EC50	< 1 µM
C=CC(=O)Nc1cccc2c1cc(C)n2-c1nc2c(c(NCc3ccccc3)n1)CCCC2	–	MDCK, A/WS/33 (H1N1)	0.1 µM, 24 h, infected cells	–	viability	0%
CC(C)=CCC[C@H](C)c1ccc(C)cc1	–	MDCK, A/PR/8/34 (H1N1)	–	baseline: CC50 over IC50	selectivity index	7.5
CC(C)C1=C[C@@]23CC[C@@H]4[C@](C)(CCC[C@@]4(C)C(=O)OCC#CCN4CCOCC4)[C@H]2C[C@@H]1[C@H]1C(=O)OC(=O)[C@H]13	–	MDCK, A/Puerto Rico/8/34 (H1N1)	–	baseline: CC50 over IC50	selectivity index	3.09
CC1=CCC[C@H](C)[C@@]12CC[C@@H](C(C)(C)O)C2	–	MDCK, A/Shenzhen/203/2001 (H3N2)	–	baseline: CC50 over IC50	selectivity index	3.5
CCN(CC)CC#CCOC(=O)[C@]1(C)CCC[C@@]2(C)[C@H]1CC=C1C=C(C(C)C)CC[C@@H]12	–	MDCK, A/Puerto Rico/8/34 (H1N1)	–	baseline: CC50 over IC50	selectivity index	1.9
CCC1(CC)C2CC3CC(C2)CC1(N(C)C)C3	viral replication	A/Ishikawa/7/82 (H3N2)	–	–	EC50	> 100 µM
Cc1cc(=O)[nH]c(=O)n1Cc1cn(C2OC(CO)C(O)C2O)nn1 (stereo not shown)	cytopathic effect protection	MDCK, A/Puerto Rico/8/34 (H1N1)	concentration not given	–	antiviral activity	inactive
CCN(CC)CC12C3CCC4C3C3C(CCC31)C42	viral replication	MDCK, H3N2 A/HK/7/87	–	–	EC50	> 100 µM
CC(=O)OC[C@H]1O[C@@H](Oc2cc(C)c3c(c2)C(=O)c2cccc(O)c2C3=O)[C@H](OC(C)=O)[C@@H](OC(C)=O)[C@@H]1OC(C)=O	viral replication, plaque reduction	A/Yuc/2370/09	concentration not given	–	inhibition	40 to 60%
CCN(CC)CC#CCO[C@H]1CC[C@H](O)[C@@H]2[C@H]1[C@H]1C[C@@H]3[C@@]4(C)CCC[C@@](C)(C(=O)OC)[C@@H]4CC[C@@]23C=C1C(C)C	–	MDCK, A/Puerto Rico/8/34 (H1N1)	–	baseline: CC50 over IC50	selectivity index	4.31
CCN(CC)C12C3CCC4C3C3C(CCC31)C42	viral replication	A/Ishikawa/7/82 (H3N2)	–	–	EC50	> 100 µM
CC(C)C1=CC2=C(C=O)C[C@@H]3[C@](C)(CCC[C@@]3(C)C(=O)OCC#CCN3CCOCC3)[C@H]2CC1	–	MDCK, A/Puerto Rico/8/34 (H1N1)	–	baseline: CC50 over IC50	selectivity index	3.62
C1CC2C3C4C5CCC4C24CNCC54C13	viral replication	A/PR/8/34 parent allantoic stock	pH 4.9	–	EC50	1.6 ± 0.6 µM
CCN(CC)CC#CCOC(=O)[C@]1(C)CCC[C@@]2(C)[C@H]1CC(C=O)=C1C=C(C(C)C)CC[C@@H]12	–	MDCK, A/Puerto Rico/8/34 (H1N1)	–	baseline: CC50 over IC50	selectivity index	9.89
CN(C)CC12C3CCC4C3C3C(CCC31)C42	viral replication	MDCK, H1N1 A/PR/8/34	–	–	EC50	> 100 µM

Repeated from above:
Structure (SMILES)	test	system	conditions	scale	endpoint	value
CCN(CC)CC#CCO[C@H]1CC[C@H](O)[C@@H]2[C@H]1[C@H]1C[C@@H]3[C@@]4(C)CCC[C@@](C)(C(=O)OC)[C@@H]4CC[C@@]23C=C1C(C)C	–	MDCK, A/Puerto Rico/8/34 (H1N1)	–	baseline: CC50 over IC50	selectivity index	4.31
CCN(CC)C12C3CCC4C3C3C(CCC31)C42	viral replication	A/Ishikawa/7/82 (H3N2)	–	–	EC50	> 100 µM
CC(C)C1=CC2=C(C=O)C[C@@H]3[C@](C)(CCC[C@@]3(C)C(=O)OCC#CCN3CCOCC3)[C@H]2CC1	–	MDCK, A/Puerto Rico/8/34 (H1N1)	–	baseline: CC50 over IC50	selectivity index	3.62
